Measurements collected from several papers.
A part holds a random share of what one study measured. Changes are numbered by the printed parent chain.

Block 1 — technique: protein binding microarray; molecule type: double-stranded DNA, one strand shown; medium: in vitro; tested at: not given; baseline: not given; reading: higher = stronger binding
Target: Histone acetyltransferase KAT6A, winged helix 2, GST fusion (KAT6A, Homo sapiens, UniProt Q92794, residues 85-181)
Notes: 8-mer, flanks averaged, mean of 2 arrays, mostly near background
Construct (chain): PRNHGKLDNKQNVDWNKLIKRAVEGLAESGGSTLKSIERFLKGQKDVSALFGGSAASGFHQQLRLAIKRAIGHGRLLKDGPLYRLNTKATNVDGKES
Sequence	E-score
ATCGATTG	-0.0613
GATCTGCA	0.00309
GATTGGAA	0.0943
AAGCCGAA	0.187
ATGTCCGC	-0.106
AGTTCAGC	0.0508
AGTGTTAC	0.0444
ATCAGTAA	-0.0169
CGTACATA	-0.121
AGAAAAAA	0.178
AGATCGCA	0.0598
CCCGACCC	0.114
AGTAATGG	-0.04
GGCCCCAC	0.00751
AAACACCC	0.0374
TATAAATA	0.112

Block 2 — technique: RNA Bind-n-Seq; molecule type: RNA; medium: in vitro; tested at: 1 µM; notes: whole 134-nt RNA, ends assumed; with: 150 mM KCl; baseline: input library; reading: higher = stronger binding
Target: Ras GTPase-activating protein-binding protein 1, RRM domain (G3BP1, Homo sapiens, UniProt Q13283)
Sequence of UniProt Q13283 (whole entry, looked up): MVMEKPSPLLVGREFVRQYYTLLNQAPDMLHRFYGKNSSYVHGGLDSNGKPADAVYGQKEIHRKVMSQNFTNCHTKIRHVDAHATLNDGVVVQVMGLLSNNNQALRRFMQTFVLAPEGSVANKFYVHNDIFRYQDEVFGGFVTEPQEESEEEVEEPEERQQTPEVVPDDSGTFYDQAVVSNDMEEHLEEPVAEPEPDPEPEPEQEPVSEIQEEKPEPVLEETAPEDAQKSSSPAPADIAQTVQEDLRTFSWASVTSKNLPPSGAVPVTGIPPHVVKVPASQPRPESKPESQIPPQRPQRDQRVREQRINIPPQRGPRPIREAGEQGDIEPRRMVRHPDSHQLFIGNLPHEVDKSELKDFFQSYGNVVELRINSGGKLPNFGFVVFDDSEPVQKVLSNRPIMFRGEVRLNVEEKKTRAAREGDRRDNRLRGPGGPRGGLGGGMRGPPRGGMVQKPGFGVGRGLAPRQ
All sequences stand within: GGGAGUUCUACAGUCCGACGAUC … UGGAAUUCUCGGGUGUCAAGG
Sequence	log2 enrichment
CUCAAGUCCUGUGCUACACAUCGUAUGUACCGAAUCGGGCGGGGCGGGGCGGGAAAGUAUUAUGUUACGCCGUUCGGAUCUGCACUUCCA	0.957
CACAGACAACACGCACCCACACAGACACAGAGGGAAGGGGUUGGGAUGGGGACAGGGUGCACAGCAGGGCGGGGUAGGACCCCAUCCCCU	-0.484
UAACUUUAGAGGAGGAUCUGAUGGAUAUGGCAGUGGACGUGGAUUUGGGGAUGGCUAUAAUGCGUAUGGAGGAGGACCUGGAGGUGGCAA	-0.275
CACAGACAACACGCACCCACGCAGACACAGAGGGAAGGGGUUGGGAUGGGGACAGGGUGCACAGCAGGGCGGGGUAGGACCCCAGCCCCU	-0.0317
UGGCCCUGGUGGCAUGCGGGGAGGAAGAGGUGGCUUCAUGGAUCGUGGUGGUCCCGGUGGAAUGUUCAGAGGUGGCCGUGGUGGAGACAG	0.964
UCAAGUCCUGUGCUACACAUCGUAUGUACCGAAUCGGUUUGGUUUUUGGAAAGGAAAGUAUUAUGUUACGCCGUUCGGAUCUGCACUUCC	-0.146
CCUCAAGUCCUGUGCUACACAUCGUAUGUACCGAAUCGGGGCGGGCGGCGGGAAAGUAUUAUGUUACGCCGUUCGGAUCUGCACUUCCAG	-0.268
UCCUGUGCUACACAUCGUAUGUACCGAAUCGGGGAAAAAGGGGAAAAAGGGAAAAAGGGAAAGUAUUAUGUUACGCCGUUCGGAUCUGCA	0.0804
UGGCCCUGGUGGCAUGCGGGGAGGAAGAGGUGGCCUCAUGGAUCGUGGUGGUCCCCGUGGAAUGUUCAGAGGUGGCCGUGGUGGAGACAG	0.622
CAAGUCCUGUGCUACACAUCGUAUGUACCGAAUCGGAAAAAGGAAAAAAAGGAGGAAAGUAUUAUGUUACGCCGUUCGGAUCUGCACUUC	-0.0457
CCUGUGCUACACAUCGUAUGUACCGAAUCGGGUUUUUUUGGGUUUUUGGGAAAAAAAGGGAAAGUAUUAUGUUACGCCGUUCGGAUCUGC	-0.197
UAACUUUAGAGGAGGAUCUGAUGGAUAUGGCAGUGGACGUGGAUUUGGGGAUGGCUAUAAUGGGUAUGGAGGAUGACCUGGAGGUGGCAA	-0.45
CAAGUCCUGUGCUACACAUCGUAUGUACCGAAUCGGGGAAGGGGAAGGGGAAGGGAAAGUAUUAUGUUACGCCGUUCGGAUCUGCACUUC	1.01
UUUUCUGCAUGGACCGUGCCCUAGAAUUUGCCCCUGCCUGCCAUCGCUUCAAAAUCCUCAAGGCAGAAUGUUUAGCAAUGCUGGGUCGUU	-0.112

Block 3 — technique: RNAcompete; molecule type: RNA; medium: in vitro; tested at: 20 nM; notes: 7-mer, probes averaged, single round; baseline: mean of 7-mers; reading: higher = stronger binding
Target: PABPC1L2, full length, GST fusion (mouse, UniProt A0ABA7IW68)
Residues (chain): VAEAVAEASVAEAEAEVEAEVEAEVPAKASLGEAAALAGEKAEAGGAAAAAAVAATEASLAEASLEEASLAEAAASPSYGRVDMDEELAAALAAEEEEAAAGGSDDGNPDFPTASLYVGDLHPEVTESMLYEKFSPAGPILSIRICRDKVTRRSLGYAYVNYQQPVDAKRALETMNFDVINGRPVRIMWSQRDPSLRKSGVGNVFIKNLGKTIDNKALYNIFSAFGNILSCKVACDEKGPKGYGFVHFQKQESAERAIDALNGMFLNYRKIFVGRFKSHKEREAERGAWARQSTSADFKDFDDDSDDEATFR
Sequence	7-mer Z-score
CCUGACG	-0.15
CAUGGAC	0.00617
CAUAGUU	-0.266
ACGAGCA	0.0932
AAACAAG	3.78
ACGCCGC	-0.229
CUCUUAA	0.0642
ACAAUCC	-0.184
AUAAGGG	0.263
CAUGGCG	0.106
CUCUUUU	-0.00833
GCAGAUA	-0.0138
CUGAUCC	-0.382
AACGCAA	0.265
AUUCAUA	-0.0863
UAUGUCA	-0.258
AUAGAAU	0.149
GUAUAGU	-0.242
CAGACAU	-0.0645

Block 4 — technique: universal PBM; molecule type: double-stranded DNA, one strand shown; medium: in vitro; tested at: not given; reading: higher = stronger binding
Target: Sal-like protein 4, full length isoform B (SALL4, Homo sapiens, UniProt Q9UJQ4-2, residues 1-616)
Notes: 8-mer, flanks averaged, mean of replicates
Sequence	E-score
CACCCGCA	-0.165
TCCCGGGA	-0.265
CTCGGCTA	-0.237
ACGCGCTC	-0.247
ATCCCAAC	-0.023
CTATGTAC	0.188
GCAGAACA	-0.0616
GGCGCGCA	-0.125
CTGCCGGC	-0.274
GAGAGCTC	-0.189
ACCGCAGT	-0.0988
ACCAACTC	-0.0878
GGACGCCC	-0.274
TCTATAAA	0.364
ACACCTGG	-0.117
GTACGGAA	-0.0247
ATTGCACG	0.00098
CGCAGAGA	-0.182

Block 5 — technique: RNA Bind-n-Seq; molecule type: RNA; medium: in vitro; tested at: 365 nM; baseline: no-protein control; reading: higher = stronger binding
Target: RNA binding protein fox-1 homolog 2, RRM domain, GST-SBP tag (RBFOX2, Homo sapiens, UniProt O43251-10, residues 100-194)
Notes: natural RNA segment, single round, ends assumed
All sequences stand within: GGGAGUUCUACAGUCCGACGAUC … UGGAAUUCUCGGGUGCCAA
Target sequence (chain): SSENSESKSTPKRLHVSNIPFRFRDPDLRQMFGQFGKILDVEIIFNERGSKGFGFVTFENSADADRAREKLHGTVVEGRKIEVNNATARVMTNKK
Sequence	RBNS enrichment (R)
CUUUCAGUGACCACCACCUCCCUAUGCAGAAGGGAUGUCAAUGUCAACAGCAGGGACUGAGACCUUUCUCUGUGCCACUCUCCUCACUGGGGCUCUGCCAUGUUACACUA	0.574
GCAUGCCAGUGAAGCGUUACCAUAGAAGAGCCAGCCGUUUGUGUUCGCUUGGUAGGUGUAAGUAAUAGCAGCCCUUAGCCACGGAGUCUUUAUGUGGUUUAUUCCUGCAA	6.83
AUCAAACUGUGGUGUAAAUAGAUCCUCAGUGAAUUCUGGUAUUCAGACUCUGUUCCACUAGUGAAUGAACCAUUUUCUAAACGUUUCCCUUUGACUUUUUUAUUUAUUGA	0.868
GGAGCCUGCCUGCCUCUGCCGUCCUCAGUUUCCUUUCAUGAGGCUUCUAGCCAAAGAUGAUAAAGGGGGAAAUGGUUUUUAGUGCGUAUAUUAUACUGCCUCUUAGGUGU	1.63
UUUAAGACUUUGUCAUCCGUUCUAGUGUAUAUGCAGAGCCUGUUGUGUGUGUGGACUGGUUAUAGAUUUAUAACUAUGCAGGGUUAAUUAUCCAAUCUUUUUUUUUUGUA	1.48
CCUAAGCCGGGGGUGCCUGGGGCUGGGGGGCGCUCCUUGCAAUGCCCCUCCAGCCACAGGGCAGUGAGGUGCUGCCUGUGUGAGCCGUCGGGGGAGCGGCCGGCUGUGGG	0.472
CUCUUUGGUCCUCAGGCCACCAGACCCCUCACAGCAUGGCCCUUGGCUCUUCCUGCACUGCCCUCACCCUCAGCCGUCCCAAGGAGUGCCCAGCACUACUCAGCAUGUAG	10.3
GUGAAGCAGGCUCCCCUGGGCCUCUGAGGGCCAGCAGUCCCAACCAUUUGCCUCUUCGUUUUGACCAAGCACAAAAGAGAUAUUCCCUAGAAGUGUCACACGGAGGCUUC	0.781
CUUAACCUUCUUUCCCAAUGGAGCUUGGGGGACUAUUUAUAGAUUUCAUUUUUCUCACUGAGCCAGUGAUGGUUGCUAUCCUCUAGGAAAAAAAAAGAAACUGGGGUAGG	0.796
AGCAAGUGAUCAGGUGUCUAUAACAUUUUUCAUUCUCUCUGGAAACAGACUCAGGUUUCUUUGGACCAAAUCCAAAAGAACACAUAGCUGUAACACAGCUGUAGCUGCCU	0.244
ACAGUAUUGGGUCUUCCGAUUUAUAAACAUGGAAUGCCUCUCCAUUUAUUUUGAUCUUUAAUUUCUCUCAGCAAUGUUGUAUAAUAUCAGAAUAUGUCUUGUACUUCUAU	0.659
CACAGCAUUCAGGCCACUUGGGGUCUAGACCAUGGUGGUGCCAGCCUGGGGGGGGCAGUGGCCCUCAGCUCUGCCCGCUGGAGCGGUUGAGUGCAGAAGGGUGCGCCUCU	0.822

Block 6 — target: CCND3, cyclin fold, Cln2 fusion (human); technique: yeast growth competition, sequencing; medium: yeast; notes: weak parent motif; baseline: not given; reading: higher = stronger binding
Starting sequence: CCP110 docking peptide (human); EKVKRRLDLDIDG
Change	normalised enrichment score
L7A	0.000428
R6A	0.113
R5A L7A	0.223
R5K	0.0422
L9F	0.194
K2A	0.0907
V3A	0.122
K4A	-0.0389
L9A	0.163
D8A	0.136

Repeated from above (block 5):
Sequence	RBNS enrichment (R)
AUCAAACUGUGGUGUAAAUAGAUCCUCAGUGAAUUCUGGUAUUCAGACUCUGUUCCACUAGUGAAUGAACCAUUUUCUAAACGUUUCCCUUUGACUUUUUUAUUUAUUGA	0.868
GGAGCCUGCCUGCCUCUGCCGUCCUCAGUUUCCUUUCAUGAGGCUUCUAGCCAAAGAUGAUAAAGGGGGAAAUGGUUUUUAGUGCGUAUAUUAUACUGCCUCUUAGGUGU	1.63
UUUAAGACUUUGUCAUCCGUUCUAGUGUAUAUGCAGAGCCUGUUGUGUGUGUGGACUGGUUAUAGAUUUAUAACUAUGCAGGGUUAAUUAUCCAAUCUUUUUUUUUUGUA	1.48
CCUAAGCCGGGGGUGCCUGGGGCUGGGGGGCGCUCCUUGCAAUGCCCCUCCAGCCACAGGGCAGUGAGGUGCUGCCUGUGUGAGCCGUCGGGGGAGCGGCCGGCUGUGGG	0.472
CUCUUUGGUCCUCAGGCCACCAGACCCCUCACAGCAUGGCCCUUGGCUCUUCCUGCACUGCCCUCACCCUCAGCCGUCCCAAGGAGUGCCCAGCACUACUCAGCAUGUAG	10.3
GUGAAGCAGGCUCCCCUGGGCCUCUGAGGGCCAGCAGUCCCAACCAUUUGCCUCUUCGUUUUGACCAAGCACAAAAGAGAUAUUCCCUAGAAGUGUCACACGGAGGCUUC	0.781
CUUAACCUUCUUUCCCAAUGGAGCUUGGGGGACUAUUUAUAGAUUUCAUUUUUCUCACUGAGCCAGUGAUGGUUGCUAUCCUCUAGGAAAAAAAAAGAAACUGGGGUAGG	0.796
